Assay results gathered from unrelated publications.
Parts stem from different laboratories: compare values within a part only. Several values in a cell are separate wells, animals, samples, runs or records.
UniProt Q9HBY8, sequence (whole entry, looked up): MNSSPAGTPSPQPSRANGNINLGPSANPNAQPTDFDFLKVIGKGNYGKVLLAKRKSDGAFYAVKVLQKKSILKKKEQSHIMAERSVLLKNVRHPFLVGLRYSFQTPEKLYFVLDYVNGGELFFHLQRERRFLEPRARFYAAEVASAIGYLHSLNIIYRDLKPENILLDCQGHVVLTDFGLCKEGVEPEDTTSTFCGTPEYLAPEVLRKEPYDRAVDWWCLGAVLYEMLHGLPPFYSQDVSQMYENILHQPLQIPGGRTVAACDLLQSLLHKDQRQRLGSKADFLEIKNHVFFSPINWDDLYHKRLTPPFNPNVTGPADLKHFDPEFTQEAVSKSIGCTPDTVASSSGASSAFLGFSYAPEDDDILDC
UniProt Q02156, sequence (whole entry, looked up): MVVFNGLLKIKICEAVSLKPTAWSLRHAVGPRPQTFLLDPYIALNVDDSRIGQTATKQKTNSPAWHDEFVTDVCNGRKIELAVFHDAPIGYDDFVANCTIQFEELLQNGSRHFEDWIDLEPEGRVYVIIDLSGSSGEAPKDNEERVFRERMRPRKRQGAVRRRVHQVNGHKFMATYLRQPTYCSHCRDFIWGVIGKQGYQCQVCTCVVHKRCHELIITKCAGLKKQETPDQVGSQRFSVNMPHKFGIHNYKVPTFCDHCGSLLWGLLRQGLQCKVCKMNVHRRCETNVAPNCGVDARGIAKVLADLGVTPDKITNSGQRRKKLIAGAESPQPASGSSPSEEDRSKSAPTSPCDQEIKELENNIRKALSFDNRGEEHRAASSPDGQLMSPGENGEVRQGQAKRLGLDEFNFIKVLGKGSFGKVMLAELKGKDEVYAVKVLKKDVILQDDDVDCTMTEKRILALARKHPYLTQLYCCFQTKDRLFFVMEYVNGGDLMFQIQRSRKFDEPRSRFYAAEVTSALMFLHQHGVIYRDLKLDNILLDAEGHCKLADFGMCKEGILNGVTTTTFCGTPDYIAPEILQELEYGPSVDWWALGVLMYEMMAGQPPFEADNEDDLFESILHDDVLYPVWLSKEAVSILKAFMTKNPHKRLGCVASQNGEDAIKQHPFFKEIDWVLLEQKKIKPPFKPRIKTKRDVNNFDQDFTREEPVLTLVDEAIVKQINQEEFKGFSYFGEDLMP
UniProt P36894, sequence (whole entry, looked up): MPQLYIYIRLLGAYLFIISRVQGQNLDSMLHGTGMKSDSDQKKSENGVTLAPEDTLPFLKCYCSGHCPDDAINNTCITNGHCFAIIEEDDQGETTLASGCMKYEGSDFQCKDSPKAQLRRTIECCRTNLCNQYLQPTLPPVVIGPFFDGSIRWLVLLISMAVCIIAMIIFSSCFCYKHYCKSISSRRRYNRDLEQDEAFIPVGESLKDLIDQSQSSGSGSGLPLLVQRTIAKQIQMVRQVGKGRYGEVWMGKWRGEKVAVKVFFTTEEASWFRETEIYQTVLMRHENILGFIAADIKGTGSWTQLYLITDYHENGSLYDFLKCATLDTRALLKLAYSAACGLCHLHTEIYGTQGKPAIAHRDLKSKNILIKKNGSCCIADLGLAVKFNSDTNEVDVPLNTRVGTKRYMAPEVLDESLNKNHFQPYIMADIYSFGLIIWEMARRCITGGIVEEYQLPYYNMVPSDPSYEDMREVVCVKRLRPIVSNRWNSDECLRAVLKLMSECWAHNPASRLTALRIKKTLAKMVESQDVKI
UniProt Q9NYY3, sequence (whole entry, looked up): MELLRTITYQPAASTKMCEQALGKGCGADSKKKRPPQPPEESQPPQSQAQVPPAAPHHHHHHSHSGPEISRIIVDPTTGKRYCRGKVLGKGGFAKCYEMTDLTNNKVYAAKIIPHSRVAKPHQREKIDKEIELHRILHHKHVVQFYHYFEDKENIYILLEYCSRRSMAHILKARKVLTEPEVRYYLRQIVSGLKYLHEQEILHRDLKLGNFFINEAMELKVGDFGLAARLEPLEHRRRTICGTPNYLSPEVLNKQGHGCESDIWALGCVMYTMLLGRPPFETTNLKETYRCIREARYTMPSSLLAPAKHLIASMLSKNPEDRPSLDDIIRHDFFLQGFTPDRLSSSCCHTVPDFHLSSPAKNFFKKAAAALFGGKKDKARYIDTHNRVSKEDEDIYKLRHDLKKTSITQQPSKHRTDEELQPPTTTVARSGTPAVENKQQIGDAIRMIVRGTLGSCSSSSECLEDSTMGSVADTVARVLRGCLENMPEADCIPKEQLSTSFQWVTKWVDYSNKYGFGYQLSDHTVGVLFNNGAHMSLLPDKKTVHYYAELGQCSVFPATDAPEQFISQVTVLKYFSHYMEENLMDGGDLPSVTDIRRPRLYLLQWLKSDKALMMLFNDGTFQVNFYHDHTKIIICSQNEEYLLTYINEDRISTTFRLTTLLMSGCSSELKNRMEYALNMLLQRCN
UniProt Q9UF33, sequence (whole entry, looked up): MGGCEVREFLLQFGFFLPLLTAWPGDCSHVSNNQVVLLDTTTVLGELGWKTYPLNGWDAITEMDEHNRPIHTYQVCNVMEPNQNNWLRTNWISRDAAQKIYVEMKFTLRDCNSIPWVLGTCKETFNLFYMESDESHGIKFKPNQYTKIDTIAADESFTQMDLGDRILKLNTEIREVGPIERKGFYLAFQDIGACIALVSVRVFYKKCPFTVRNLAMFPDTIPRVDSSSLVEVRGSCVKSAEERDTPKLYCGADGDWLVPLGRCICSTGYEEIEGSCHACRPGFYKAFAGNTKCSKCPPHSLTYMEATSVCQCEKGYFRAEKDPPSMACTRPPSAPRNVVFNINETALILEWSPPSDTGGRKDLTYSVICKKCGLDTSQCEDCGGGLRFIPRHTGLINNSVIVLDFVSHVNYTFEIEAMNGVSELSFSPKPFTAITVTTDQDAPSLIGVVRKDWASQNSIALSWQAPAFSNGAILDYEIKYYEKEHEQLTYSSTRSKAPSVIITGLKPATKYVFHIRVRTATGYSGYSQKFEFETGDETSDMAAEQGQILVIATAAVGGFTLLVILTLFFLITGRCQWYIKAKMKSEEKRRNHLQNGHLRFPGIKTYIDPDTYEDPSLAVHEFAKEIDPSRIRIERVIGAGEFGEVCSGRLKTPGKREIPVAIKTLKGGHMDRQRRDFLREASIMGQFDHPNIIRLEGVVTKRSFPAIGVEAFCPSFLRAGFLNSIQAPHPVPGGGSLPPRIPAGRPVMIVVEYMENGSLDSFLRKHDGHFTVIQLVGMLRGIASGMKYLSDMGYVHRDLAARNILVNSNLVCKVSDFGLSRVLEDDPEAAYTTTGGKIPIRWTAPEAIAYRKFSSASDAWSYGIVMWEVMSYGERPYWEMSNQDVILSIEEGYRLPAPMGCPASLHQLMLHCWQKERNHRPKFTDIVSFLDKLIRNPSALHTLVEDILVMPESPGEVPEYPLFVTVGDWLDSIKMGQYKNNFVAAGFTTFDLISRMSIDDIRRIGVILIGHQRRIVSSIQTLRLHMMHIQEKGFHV
UniProt P36507, sequence (whole entry, looked up): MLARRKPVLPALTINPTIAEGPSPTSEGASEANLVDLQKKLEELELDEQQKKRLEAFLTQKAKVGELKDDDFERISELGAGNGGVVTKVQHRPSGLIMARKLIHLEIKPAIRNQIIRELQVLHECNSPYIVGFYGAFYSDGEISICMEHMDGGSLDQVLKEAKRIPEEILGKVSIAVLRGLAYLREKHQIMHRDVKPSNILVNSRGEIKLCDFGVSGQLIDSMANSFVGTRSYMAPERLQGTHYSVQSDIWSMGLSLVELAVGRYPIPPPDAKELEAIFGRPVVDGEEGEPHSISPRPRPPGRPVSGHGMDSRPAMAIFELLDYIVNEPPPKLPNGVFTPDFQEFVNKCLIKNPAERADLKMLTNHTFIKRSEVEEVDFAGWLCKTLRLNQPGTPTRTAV

Sample 1 — SMILES: CCC(=O)Nc1ccc2ncnc(Nc3cccc(Br)c3)c2c1; observed: enzyme activity; action: inhibitor; concentration: 0.5 µM; baseline: control
For CSNK1E (Homo sapiens, UniProt P49674): remaining activity read 98.2%.
It gave 88.9% for remaining activity (CAMK1 (Homo sapiens, UniProt Q14012)).
PAK1 (Homo sapiens, UniProt Q13153) — remaining activity: 96.3%.
It gave 34% for remaining activity (ERBB2 (Homo sapiens, UniProt P04626)).
It gave 101% for remaining activity (PAK6 (Homo sapiens, UniProt Q9NQU5)).
EPHA6 (Homo sapiens, UniProt Q9UF33) — remaining activity: 79.5%.
For PRKCQ (Homo sapiens, UniProt Q04759): remaining activity read 96.3%.
SGK2 (Homo sapiens, UniProt Q9HBY8) — remaining activity: 96.2%.
CLK1 (Homo sapiens, UniProt P49759) — remaining activity: 84.5%.
The remaining activity was 84.9% (Cyclin-dependent kinase 2, with cyclin E (CDK2, Homo sapiens, UniProt P24941)).
ACVRL1 (Homo sapiens, UniProt P37023) — remaining activity: 97.4%.
The remaining activity was 85.3% (PIM1 (Homo sapiens, UniProt P11309)).
The remaining activity was 101% (EPHA2 (Homo sapiens, UniProt P29317)).
BRSK2 (Homo sapiens, UniProt Q8IWQ3) — remaining activity: 94.3%.
It gave 94.9% for remaining activity (RPS6KB2 (Homo sapiens, UniProt Q9UBS0)).
The remaining activity was 100% (Cyclin-dependent kinase 5, with p35 (CDK5, Homo sapiens, UniProt Q00535)).
TYRO3 (Homo sapiens, UniProt Q06418) — remaining activity: 101%.
It gave 96% for remaining activity (MAP3K20 (Homo sapiens, UniProt Q9NYL2)).
It gave 86.9% for remaining activity (FLT1 (Homo sapiens, UniProt P17948)).
EPHB3 (Homo sapiens, UniProt P54753) — remaining activity: 89.4%.
For JAK2 (Homo sapiens, UniProt O60674): remaining activity read 103%.
It gave 87.8% for remaining activity (MUSK (Homo sapiens, UniProt O15146)).
For FES (Homo sapiens, UniProt P07332): remaining activity read 102%.
For MELK (Homo sapiens, UniProt Q14680): remaining activity read 93.4%.
It gave 99.8% for remaining activity (CAMKK1 (Homo sapiens, UniProt Q8N5S9)).

Sample 2 — technique: competition with immobilised ligand; concentration: 0.1 µM
Structure (SMILES): CC(C)CC(=O)N1CCc2nc(-c3ccc(Br)cc3)nc(N(C)Cc3ccccc3)c2C1
The remaining binding was 66% (MAP3K13 (Homo sapiens, UniProt O43283); cell-free assay).
Tyrosine-protein kinase ABL1, phosphorylated (ABL1, Homo sapiens, UniProt P00519, F317L); cell-free assay — remaining binding: 100%.
It gave 98% for remaining binding (MYLK3 (Homo sapiens, UniProt Q32MK0); cell-free assay).
Tyrosine-protein kinase ABL1, phosphorylated (ABL1, Homo sapiens, UniProt P00519, Q252H); cell-free assay — remaining binding: 88%.
It gave 100% for remaining binding (PRKCE (Homo sapiens, UniProt Q02156); cell-free assay).
The remaining binding was 93% (BMPR1A (Homo sapiens, UniProt P36894); binding).
The remaining binding was 100% (MAP2K2 (Homo sapiens, UniProt P36507); cell-free assay).
It gave 77% for remaining binding (PIK3CA (Homo sapiens, UniProt P42336); cell-free assay).
For PLK2 (Homo sapiens, UniProt Q9NYY3); cell-free assay: remaining binding read 100%.

Sample 3 — cell line: HEK293T ATF4-firefly luciferase reporter; observed: integrated stress response; measured: ATF4; baseline: DMSO
SMILES: c1ccc2c(-c3nn4c(-c5ccncc5)nnc4s3)c[nH]c2c1
It gave 226% and 174% and 202% and 205% for reporter signal (10 µM, without ISRIB).
It gave 127% and 122% and 149% and 110% and 121% and 134% for reporter signal (1 µM, without ISRIB).
It gave 83.7% and 81.5% and 81.4% and 83.2% and 94.2% and 79.3% and 87.5% and 80.9% for reporter signal (1 µM, together with: ISRIB).

Sample 4 — sample: hydrocarbon/water
The logD of `CCCCCN1CC(=O)N[C@@H](C)C(=O)N2CCC[C@@H]2C(=O)N(C)[C@@H](CC(C)C)C(=O)N[C@@H](C)C(=O)N(CC)CC(=O)N[C@@H](CC(C)C)C(=O)N2CCC[C@@H]2C(=O)N(C)[C@@H](CC(C)C)C(=O)N[C@@H](C)C1=O` is reported as 1.31.
With `CCC[C@H]1C(=O)N[C@@H](CC)C(=O)N(C)[C@@H](C)C(=O)N[C@@H](CC(C)C)C(=O)N(C)Cc2cn(nn2)CC(=O)N[C@@H](CC(C)C)C(=O)N(C)[C@@H](C)C(=O)N[C@@H](CC(C)C)C(=O)N2CCC[C@@H]2C(=O)N1C` the logD was -0.503.
`CCCN1CC(=O)N[C@@H](C2CCCCC2)C(=O)N2CCC[C@@H]2C(=O)N(C)[C@@H](C)C(=O)N[C@@H](CC2CCCCC2)C(=O)N(C)[C@@H](C)C(=O)N[C@@H](CC(C)C)C(=O)N(C)Cc2cn(nn2)CC(=O)N[C@@H](CC(C)C)C1=O` gave a logD of 1.52.
For `CCCN1CC(=O)N[C@@H](CC)C(=O)N(C)[C@@H](C)C(=O)N[C@@H](CC(C)C)C(=O)N(C)Cc2cn(nn2)CC(=O)N[C@@H](CC(C)C)C(=O)N(C)[C@@H](C)C(=O)N[C@@H](CC(C)C)C(=O)N2CCC[C@@H]2C1=O`, the logD was -1.09.
`CCOC(=O)[C@@H]1CSCC(=O)N[C@H](CC)C(=O)N(CC(C)C)CC(=O)N[C@@H](CC(C)C)C(=O)N(C)[C@H](C)C(=O)N(C)[C@@H](C)C(=O)N[C@H](CC(C)C)C(=O)N(C)[C@@H](C)C(=O)N[C@@H](CC(C)C)C(=O)N1C` has a logD of 1.62.
The logD of `CCOC(=O)[C@@H]1CSCC(=O)N[C@@H](CC)C(=O)N(C)[C@@H](C)C(=O)N[C@H](CC(C)C)C(=O)N2CCC[C@H]2C(=O)N(CC(C)C)CC(=O)N[C@H](CC(C)C)C(=O)N(C)[C@@H](C)C(=O)N[C@@H](CC(C)C)C(=O)N1C` is reported as 2.38.

Sample 5 — cell line: HaCaT; concentration: 100 µM; time: 18 h
`CC(=O)O[C@H]1Cc2ccccc2N(C(N)=O)c2ccccc21` has a viability of 120%.
`CCOc1ccc2nc3cc(N)ccc3c(N)c2c1` gave a viability of 42.6%.
The viability of `Clc1ccc(C(Cn2ccnc2)OCc2csc3c(Cl)cccc23)c(Cl)c1` (stereo not shown) is reported as 16.6%.
For `CCOC(=O)[C@H](CCc1ccccc1)N[C@@H](C)C(=O)N(CC(=O)O)C1Cc2ccccc2C1`, the viability was 46.9%.
The viability of `COc1ccc(-c2cc(=O)c3c(O)c(OC)c(O)cc3o2)cc1OC` is reported as 89%.
`CC[C@H](C)C[C@H](C)CCCCCCCCC(=O)N[C@H]1C[C@@H](O)[C@@H](NCCN)NC(=O)[C@@H]2[C@@H](O)CCN2C(=O)[C@H]([C@H](O)CCN)NC(=O)[C@H]([C@H](O)[C@@H](O)c2ccc(O)cc2)NC(=O)[C@@H]2C[C@@H](O)CN2C(=O)[C@H]([C@@H](C)O)NC1=O` gave a viability of 52.5%.

Sample 6 — action: inhibitor; concentration: 10 µM; baseline: control
Target: Diamine acetyltransferase 1 (Homo sapiens, UniProt P21673)
Residues (P21673 1-171): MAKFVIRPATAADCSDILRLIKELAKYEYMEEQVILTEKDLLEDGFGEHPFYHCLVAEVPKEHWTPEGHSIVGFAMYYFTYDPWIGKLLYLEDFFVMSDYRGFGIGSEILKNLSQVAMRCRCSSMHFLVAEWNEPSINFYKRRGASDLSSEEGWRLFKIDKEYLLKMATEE
The remaining activity of `CC(C)C12CCC(C)(CC1)O2` is reported as 103%.
`CC(=O)CC/C=C(\C)CC/C=C(\C)CCC=C(C)C` has a remaining activity of 103%.
`CCCCC/C=C/C=C/C(=O)NCC(C)C` gave a remaining activity of 114%.
For `O=C(O)c1cccc(O)c1`, the remaining activity was 84.5%.
With `O=c1cc(-c2ccccc2)oc2cc(O)c(O)c(O)c12` the remaining activity was 84.8%.
For `COC(=O)c1ccc(O)cc1O`, the remaining activity was 112%.

Repeated from above (sample 1):
It gave 101% for remaining activity (PAK6 (Homo sapiens, UniProt Q9NQU5)).
EPHA6 (Homo sapiens, UniProt Q9UF33) — remaining activity: 79.5%.
For PRKCQ (Homo sapiens, UniProt Q04759): remaining activity read 96.3%.
SGK2 (Homo sapiens, UniProt Q9HBY8) — remaining activity: 96.2%.
